Assay results from different studies.
Lines come from different studies, so protocols differ. ± marks the error that the study gave.

SMILES	target or system	test	system	conditions	measurement	value
CC(=O)Oc1ccc2c3c1O[C@H]1[C@@H](OC(C)=O)C=C[C@H]4[C@@H](C2)N(C)CC[C@@]341	–	LC-MS/MS	Sprague-Dawley rat, male, whole blood	intraperitoneal, 10 mg/kg	half-life	0.0702 ± 0.0142 h
O=C(O)CCC(CP(=O)(O)O)C(=O)O (stereo not shown)	–	–	rat Wistar male, plasma	intraperitoneal, 100 mg/kg	half-life	0.64 h
O=[Se](=O)([O-])[O-].[Na+].[Na+]	–	–	rat	intraperitoneal, 1 mg/kg	half-life	2.25 h
NCCOCC(=O)N1CCCC(C(=O)NCc2nc(-c3ccc(-c4ccc(F)cc4)cc3)cs2)C1 (stereo not shown)	–	–	male Sprague Dawley rat	intravenous, 1 mg/kg	half-life	15 h
CC(C)[C@@H](CN1CC[C@@](C)(c2cccc(O)c2)[C@@H](C)C1)NC(=O)[C@@H]1Cc2ccc(O)cc2CN1C	–	–	rat, plasma	intraperitoneal, 5 mg/kg	half-life	23.7 h
CSCC[C@H](NC(=O)COCCOCCNC(=O)COCCOCCNC(=O)CC[C@H](NC(=O)CCCCCCCCCCCCCCCCC(=O)O)C(=O)O)C(=O)N[C@H]1CSSC[C@@H](C(=O)NCC(=O)N[C@@H](CO)C(=O)NCC(=O)N[C@@H](CO)C(=O)N[C@@H](CC(=O)O)C(=O)N[C@@H](Cc2ccc(O)cc2)C(=O)N[C@@H](CCCCN)C(=O)N[C@@H](CC(=O)O)C(=O)N[C@@H](CC(=O)O)C(=O)N[C@@H](CC(=O)O)C(=O)N[C@@H](CC(=O)O)C(=O)N[C@@H](CCCCN)C(N)=O)NC(=O)[C@H](Cc2ccccc2)NC(=O)[C@@H]2CCCN2C(=O)[C@H](Cc2c[nH]c3ccccc23)NC(=O)[C@H](CC(C)C)NC(=O)[C@H](CCSC)NC(=O)[C@H](Cc2c[nH]cn2)NC(=O)[C@H](Cc2ccccc2)NC(=O)[C@H](Cc2c[nH]cn2)NC(=O)[C@H]([C@@H](C)O)NC(=O)[C@H](Cc2ccccc2)NC1=O	–	–	Sprague-Dawley rat, male, plasma	intravenous	half-life	10.7 h
Cn1cccc1-c1cccnc1	–	–	rat	intravenous, preliminary data, added: nicotine	half-life	~2 h
COc1cccc([C@]2(C)CCN(C[C@@H](NC(=O)[C@H]3Cc4ccc(O)cc4CN3)C(C)C)C[C@@H]2C)c1	–	–	rat, plasma	intraperitoneal, 5 mg/kg	half-life	41.4 h
COC[C@@]12CC[C@H](OC)[C@]34C(C([C@H](OC)[C@H]13)[C@]1(OC(C)=O)[C@H]3[C@@H](OC(=O)c5ccccc5)[C@](O)(C[C@H]34)[C@@H](OC)[C@@H]1O)N(C)C2	–	–	Sprague-Dawley rat, plasma	oral, dose not given, with H in PCW extract	half-life	15.3 ± 8.49 h
CC(=O)N1CCN(c2ccc(OCC3COC(Cn4ccnc4)(c4ccc(Cl)cc4Cl)O3)cc2)CC1 (stereo not shown)	human coronavirus OC43	virus-induced cell killing	MRC-5	screen	maximum inhibition	18.1%
[Se]	–	–	rat, plasma	intraperitoneal, 1 mg/kg, sodium selenate	half-life	4.3 h
COC(=O)[C@H]1[C@@H](OC(=O)c2ccccc2)C[C@@H]2CC[C@H]1N2	–	LC-MS/MS	Sprague-Dawley rat, whole blood	intraperitoneal, 20 mg/kg of cocaine	half-life	0.611 ± 0.0143 h
CC(C)[C@@H](CN1CC[C@@](C)(c2cccc(O)c2)[C@@H](C)C1)NC(=O)[C@@]1(C)Cc2ccc(O)cc2CN1	–	–	rat, plasma	intraperitoneal, 5 mg/kg	half-life	29.3 h
COC[C@]12CN(C)[C@@H]3[C@@H]4[C@H](OC)[C@H]1[C@@]3([C@@H](OC)C[C@H]2O)[C@@H]1C[C@@]2(O)[C@H](OC(=O)c3ccccc3)[C@@H]1[C@]4(OC(C)=O)[C@@H](O)[C@@H]2OC	–	–	Sprague-Dawley rat, plasma	oral, dose not given, in PCW extract	half-life	8.8 ± 4.51 h
COc1ccc2c(c1)CN[C@@H](C(=O)N[C@H](CN1CC[C@@](C)(c3cccc(O)c3)[C@@H](C)C1)C(C)C)C2	–	–	Sprague-Dawley rat, plasma	intraperitoneal, 5 mg/kg	half-life	35.2 h
O=C(Oc1ccc([N+](=O)[O-])cc1)N1CCC(C(O)(c2ccc3c(c2)OCO3)c2ccc3c(c2)OCO3)CC1	human coronavirus OC43	virus-induced cell killing	MRC-5	screen	maximum inhibition	19.5%
CC(=O)N[C@@H](C)C(=O)N[C@H]1CSSC[C@@H](C(=O)O)NC(=O)[C@H](Cc2ccccc2)NC(=O)[C@@H]2CCCN2C(=O)[C@H](Cc2c[nH]c3ccccc23)NC(=O)[C@H](CC(C)C)NC(=O)[C@H](CC(C)C)NC(=O)[C@H](CC(=O)O)NC(=O)[C@H](Cc2ccccc2)NC(=O)[C@H](Cc2c[nH]cn2)NC(=O)[C@H]([C@@H](C)O)NC(=O)[C@H](Cc2ccccc2)NC1=O	–	–	Sprague-Dawley rat, male, plasma	intravenous	half-life	0.03 h
CCCCCCCC(=O)N[C@@H](CCCCN)C(=O)N[C@@H](CCCCN)C(=O)N[C@@H](C)C(=O)N[C@@H](CC(C)C)C(=O)N[C@@H](CCCCN)C(=O)N[C@@H](CC(C)C)C(=O)N[C@@H](C)C(=O)N[C@@H](CCCCN)C(=O)N[C@@H](CCCCN)C(=O)N1CCC[C@H]1C(=O)N[C@@H](CC(C)C)C(=O)N[C@@H](CCCCN)C(=O)N[C@@H](CC(C)C)C(=O)N[C@@H](CC(C)C)C(=O)N[C@@H](CCCCN)C(N)=O	–	–	Sprague-Dawley rat, male, whole blood	intravenous infusion, 3 mg/kg, 1 h infusion	half-life	0.2 ± 0.1 h
CC(=O)O[C@H]1C=C[C@H]2[C@H]3Cc4ccc(O)c5c4[C@@]2(CCN3C)[C@H]1O5	–	LC-MS/MS	male Sprague-Dawley rat, whole blood	intraperitoneal, 10 mg/kg of heroin	half-life	0.426 ± 0.0233 h
Cc1ccc(S(=O)(=O)Nc2c(N[C@H]3CC[C@H](NC(=O)Nc4ccc(F)c(Cl)c4)CC3)c(=O)c2=O)cc1	–	–	rat, plasma	intravenous, 10 mg/kg	half-life	1.52 h
CC(C)(C)[C@H](NC(=O)[C@H](CCONC(=N)N)NC(=O)Cc1ccc(CNC(=N)N)cc1)C(=O)N[C@@H](CCONC(=N)N)C(=O)NCc1ccc(C(=N)N)cc1	–	–	Sprague Dawley rat, male, plasma	intraperitoneal, 2.5 mg/kg	half-life	8 h
CN1CC[C@]23c4c5ccc(O[C@@H]6O[C@H](C(=O)O)[C@@H](O)[C@H](O)[C@H]6O)c4O[C@H]2[C@@H](O)C=C[C@H]3[C@H]1C5	–	–	Sprague-Dawley rat, whole blood	intraperitoneal, 10 mg/kg heroin, single heroin dose alone	half-life	1.29 ± 0.236 h

Repeated from above:
SMILES	target or system	test	system	conditions	measurement	value
COC[C@]12CN(C)[C@@H]3[C@@H]4[C@H](OC)[C@H]1[C@@]3([C@@H](OC)C[C@H]2O)[C@@H]1C[C@@]2(O)[C@H](OC(=O)c3ccccc3)[C@@H]1[C@]4(OC(C)=O)[C@@H](O)[C@@H]2OC	–	–	Sprague-Dawley rat, plasma	oral, dose not given, in PCW extract	half-life	8.8 ± 4.51 h
COc1ccc2c(c1)CN[C@@H](C(=O)N[C@H](CN1CC[C@@](C)(c3cccc(O)c3)[C@@H](C)C1)C(C)C)C2	–	–	Sprague-Dawley rat, plasma	intraperitoneal, 5 mg/kg	half-life	35.2 h
O=C(Oc1ccc([N+](=O)[O-])cc1)N1CCC(C(O)(c2ccc3c(c2)OCO3)c2ccc3c(c2)OCO3)CC1	human coronavirus OC43	virus-induced cell killing	MRC-5	screen	maximum inhibition	19.5%
